Assay results collected from several papers.
Every numbered part comes from another study and shows a few of its results, in no order.

Study 1
Target: Interferon regulatory factor 7, full length, phosphomimetic (IRF7, Homo sapiens, UniProt Q92985, residues 1-503, S101K/S471D/S472D/S475D/S476D/S477D/S483D/S484D/S487D)
UniProt Q92985, sequence (whole entry, unmodified, looked up): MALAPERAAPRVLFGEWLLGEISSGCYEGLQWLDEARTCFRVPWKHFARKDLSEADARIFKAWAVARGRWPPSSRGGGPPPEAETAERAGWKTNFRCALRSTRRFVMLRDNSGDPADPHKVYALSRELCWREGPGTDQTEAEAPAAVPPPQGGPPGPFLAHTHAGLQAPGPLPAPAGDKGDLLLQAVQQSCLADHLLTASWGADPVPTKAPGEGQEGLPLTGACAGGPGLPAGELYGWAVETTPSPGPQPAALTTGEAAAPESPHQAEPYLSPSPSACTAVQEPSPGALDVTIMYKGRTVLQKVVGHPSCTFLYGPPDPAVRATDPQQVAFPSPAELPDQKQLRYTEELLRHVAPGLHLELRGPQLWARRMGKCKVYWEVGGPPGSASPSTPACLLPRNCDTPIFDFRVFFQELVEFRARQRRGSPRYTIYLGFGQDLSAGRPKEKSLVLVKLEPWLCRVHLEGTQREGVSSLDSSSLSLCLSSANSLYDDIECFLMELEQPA
Technique: protein-binding microarray
Form: double-stranded DNA, one strand shown
Medium: in vitro
Concentration: 250 nM
Setting: 60-bp whole probe
With: salmon DNA 0.4 mg/ml
Baseline: random background probes
Direction: higher = stronger binding
All sequences stand within: GCCTAGCAC … GTCTTGATTCGCTTGACGCTGCTG
| Oligonucleotide | log fluorescence [z-score] |
| --- | --- |
| GACGGTCTCGGACTGGGAACGTGCTAG | -0.0407 |
| GACGATTTCAGTAGCGAGACGTGCTAG | 0.145 |
| AACGGACTGGACTATCGGGACGTGCTA | -0.454 |
| GGGGAGCAGGGTGGCCCTGTGTGCTAG | -1.31 |
| GACGGCCTGGGTCTCGGGACGTGCTAG | -0.613 |
| TTAGGTCTCCTCATCCTTTAGTGCTAG | 0.0483 |
| CAGAAAATAGAAACTCGTGTTGTGCTA | 1.41 |
| GACGGACCGGACTATCGGGACGTGCTA | -0.513 |
| GACGGTTTCGGTTCGGGGACGTGCTAG | 13.3 |
| TCAAATTTCTTTCTAATACTGTGCTAG | 0.659 |
| GACGGTTTCGTGACTGGGGACGTGCTA | 2.48 |
| GACGATACCAGTATCGAGACGTGCTAG | 0.317 |
| AGAGCCTGGGGATGCAGAGAGTGCTAG | -1.14 |
| TAGAAACTCGTGTTTTTCTCCGTGCTA | 0.0839 |
| TCTCATTCCAATTCTTTTTATGTGCTA | 1.16 |
| TCAACTTTCTCTGCTCTTACTGTGCTA | 0.336 |
| TCAGCTGTCCTTTGCAAACTGTGCTAG | -0.459 |
| TTAGGACTGCCTATCCTTTAGTGCTAG | -0.0369 |
| TTAGAACTGAGTATCGGTTAGTGCTAG | 0.723 |
| TTAGGACTGCTTATCCTGTAGTGCTAG | -0.138 |
| TTAGGTAACCTTATCCTTTAGTGCTAG | -0.0265 |
| TTAGATTTCGGGTTACGATTAGTGCTA | 3.5 |
| GACGTTTTCGGGTATCGGGACGTGCTA | 1.92 |
| TGGGCATTTTTTTTATCAATGTGCTAG | -0.702 |
| GACGGTTTCGACTTTAGGGACGTGCTA | 9.71 |

Study 2
Target: Phosphate system positive regulatory protein PHO4, full length, GST-tagged (PHO4, Saccharomyces cerevisiae, UniProt P07270, residues 1-312)
Technique: competition protein-binding microarray
Form: double-stranded DNA, one strand shown
Medium: in vitro
Concentration: 2 µM
Setting: whole 60-bp probe, lowest competitor level
With: Cbf1 competitor, 0.05 µM
Direction: higher = stronger binding
Construct (chain): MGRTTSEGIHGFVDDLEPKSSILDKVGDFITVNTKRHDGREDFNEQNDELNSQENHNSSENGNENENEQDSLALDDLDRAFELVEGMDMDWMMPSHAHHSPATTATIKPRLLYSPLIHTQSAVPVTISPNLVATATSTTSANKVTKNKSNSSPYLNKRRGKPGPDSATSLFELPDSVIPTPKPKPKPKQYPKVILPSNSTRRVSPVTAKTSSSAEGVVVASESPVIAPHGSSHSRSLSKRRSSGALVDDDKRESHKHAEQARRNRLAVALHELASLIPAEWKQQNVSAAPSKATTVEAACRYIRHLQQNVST
| Oligonucleotide | fluorescence intensity |
| --- | --- |
| CTTTAAGTGCCGGGACAAGTTCCTGGTTATCGCGTTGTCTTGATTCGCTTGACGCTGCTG | 3440 a.u. |
| CTATATACATGTATACACGTGAGATAATAAATTATGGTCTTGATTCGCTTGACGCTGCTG | 15400 a.u. |
| CGGACCCCGTCTTAGCACACGCAGACGCAGACGCAGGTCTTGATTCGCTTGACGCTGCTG | 7010 a.u. |
| CATACCCAACCTTGCGCAGTGGGTGAAGATATTTGTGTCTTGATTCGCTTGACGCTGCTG | 4090 a.u. |
| AAGGAAACTATAAAGCACGCAATTCCCTATTTGGTTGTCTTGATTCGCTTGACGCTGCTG | 6680 a.u. |
| AAGATATATGAATAGGACGTGTCGGTAGAACTAGTAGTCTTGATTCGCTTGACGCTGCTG | 5760 a.u. |
| AGTTTCAGAGGTGGACACATGGGAGCCAACAGCTCAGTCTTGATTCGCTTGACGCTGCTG | 9320 a.u. |
| TGAAGAACAGAGCTGCTCGTGACGGAAGAGCTCAAAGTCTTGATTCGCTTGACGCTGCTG | 5430 a.u. |
| GGAAGAAGCATCTCACGCATGGAAAACAATTGACCTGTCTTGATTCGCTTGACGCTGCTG | 5940 a.u. |
| CACTGTTCGCTTCGTCATGATCAATGGTGTTACTGAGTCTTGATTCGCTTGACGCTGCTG | 4010 a.u. |
| GGCCGGGGCATGTTTCACGGGAAGTTCTGTGGCAGGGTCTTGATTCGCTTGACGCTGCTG | 5310 a.u. |
| TAGAGAGTTGTCCATCACGTTGGACAGGTTGTACTTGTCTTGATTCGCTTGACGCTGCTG | 9060 a.u. |
| TTCACTTGTTTGAAAAACGTGTCGGAGGGATGTTCTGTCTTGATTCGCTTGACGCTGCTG | 11600 a.u. |
| CGGGGTTAAGTTTGCGAGGTGGGTGGCTTGCAGCAGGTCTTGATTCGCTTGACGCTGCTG | 4580 a.u. |
| CTTCTGTAAATTTGGCCGGTGGGTGGACGCGCCCCGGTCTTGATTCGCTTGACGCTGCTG | 4240 a.u. |
| GTCTTGTCTCATTGTCACGTGACTTTCCCCACTTCAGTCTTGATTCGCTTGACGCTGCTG | 12100 a.u. |
| TCAAAAAGGGACAATCACCTGGATGCATAAGGAGGAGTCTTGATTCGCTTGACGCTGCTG | 4020 a.u. |
| AAAGCGGTAATTTGATTGGTGGGTGCAGATATCTATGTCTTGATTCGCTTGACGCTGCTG | 3960 a.u. |

Study 3
Target: Histone acetyltransferase KAT6A, winged helix 2, GST fusion (KAT6A, Homo sapiens, UniProt Q92794, residues 85-181)
Technique: protein binding microarray
Form: double-stranded DNA, one strand shown
Medium: in vitro
Concentration: not given
Setting: 8-mer, flanks averaged, mean of 2 arrays, mostly near background
Baseline: not given
Direction: higher = stronger binding
Residues (chain): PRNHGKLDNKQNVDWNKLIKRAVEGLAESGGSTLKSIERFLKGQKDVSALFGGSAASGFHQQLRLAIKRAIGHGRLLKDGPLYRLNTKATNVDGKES
| Oligonucleotide | E-score |
| --- | --- |
| CCATTGGG | -0.00103 |
| ACGCCAGG | 0.252 |
| CAACAGCG | -0.0962 |
| GCGCAGAC | 0.126 |
| TGCCCAAA | 0.0606 |
| CGGTCCAA | 0.0534 |
| GCTGTTCC | -0.0879 |
| CCCAGAGA | -0.00097 |
| ATAGGCAG | 0.0469 |
| CCATTGTC | -0.124 |
| CCAACACA | 0.0992 |
| AAAATGCT | 0.174 |
| AATCACCG | 0.00844 |
| ACGAGGAC | 0.0175 |
| CAAGCAAG | 0.0861 |
| AGGAGGGG | 0.207 |
| TACGTATA | -0.0596 |
| CAGGATCG | -0.0859 |

Study 4
Target: RNA binding protein fox-1 homolog 2, RRM domain, GST-SBP tag (RBFOX2, Homo sapiens, UniProt O43251-10, residues 100-194)
Technique: RNA Bind-n-Seq
Form: RNA
Medium: in vitro
Concentration: 365 nM
Setting: natural RNA segment, single round, ends assumed
Baseline: no-protein control
Direction: higher = stronger binding
Construct (chain): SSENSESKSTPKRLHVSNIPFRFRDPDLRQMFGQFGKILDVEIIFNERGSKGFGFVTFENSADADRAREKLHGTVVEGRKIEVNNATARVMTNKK
| Oligonucleotide | RBNS enrichment (R) |
| --- | --- |
| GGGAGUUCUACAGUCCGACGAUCUGACAGCACUAACCAGACCUCCAGCCACUCACAGCUCUUUUUAAAAAACAGCUUCAAAAUAUGCAGCAAAAACCAAUACAACAAAACGAGUGGCACGAUUUAUUUCAAACUGGAAUUCUCGGGUGCCAA | 0.551 |
| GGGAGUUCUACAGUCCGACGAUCGCUUACGUGGCCUGCUGUCCUCUGUGUGAUUAGGAGGGUUUCUGCUGGCCCUGCAGCUUGCUUCCCUGCGGAUUAGGCCUUUGCUCAUGCUAUAGCCUUCAUGUGGGUGCUGGAAUUCUCGGGUGCCAA | 0.686 |
| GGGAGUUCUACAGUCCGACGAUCGCAUAUGCCAGCCACUGCGCUUGGUUCCCAUUUUCUUUGCCAAGGUGUAUUAGCGGACGGCCCUCUGGCCACCUACCCGAGAGAUCGUAGGGUCACAUACAUCCAACUUCUGGAAUUCUCGGGUGCCAA | 0.602 |
| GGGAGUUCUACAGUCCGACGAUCACCGGUCAGCAACCUUGGCAUUGAUACAUAGGCACUCUACAGAAUUUAAGUUUUCAGAGGUAAGUCUGUUGUUCUGAUUAAUCUGCAUUCAUUCAGCGAAUGCUCAAGACUGGAAUUCUCGGGUGCCAA | 0.888 |
| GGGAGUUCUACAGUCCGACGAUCUGUGAGGCUCAGAUGCUGAUACCAGUAACAUUCAAAAUUAACUUCACGCAUUGAAUACAUUUAAACUGUUCAUUAGCGGAGUGAUAUUUGGACAUAAAUAUCUCGUCUUCUGGAAUUCUCGGGUGCCAA | 0.223 |
| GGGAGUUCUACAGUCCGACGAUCUGUGUUUGAUCUCAGGAGUCCAAAAUAAGUUGUUGCUUCUAGUGUCCUGCAUUUUAUUGACUGGGGUUUGAUCUCAGCUUCUGAAAAUGUUUAAAAAUUGGAAGGAAAUAUGGAAUUCUCGGGUGCCAA | 0.331 |
| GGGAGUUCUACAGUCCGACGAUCCUACGUUGUCCAGGAGACCUCCCUGUGACCUGGGGCGUGAACUCUGCCCUCGCUGCAGACAGCAGCCGGAGGCUAUUUUGUAGUGCAGAGAUGACUCACUCACUCCGUGUUGGAAUUCUCGGGUGCCAA | 0.229 |
| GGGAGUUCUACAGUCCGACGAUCUCAGGUAUUAUUUACUUUUAUUUUUUUGACCUGAAUCGGGAGCCACACUUGGCCCUCUUCCUCUCCAAAGCGCCAGAACCUCCUUCUCUUUGGAGAAUGGGGAGGCCUCUUGGAAUUCUCGGGUGCCAA | 0.361 |
| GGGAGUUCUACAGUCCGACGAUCAGAGAAAAACCAGUGCUUCCUACUGCACAUGACUGACUCAGCUCCGCCACACGUAGCACCACUGUAACCACUGCUUUCUCUUCAAGUUUCAUUUUUUUCCUUUGAUUGAUUGGAAUUCUCGGGUGCCAA | 0.429 |
| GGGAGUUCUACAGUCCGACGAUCCCUGCCAAGCUCACACAGCAGGAACUGAGCCAGAAACGCAGAUUGGGCUGGCUCUGAAGCCAAGCCUCUUCUUACUUCACCCGGCUGGGCUCCUCAUUUUUACGGGUAACUGGAAUUCUCGGGUGCCAA | 0.228 |
| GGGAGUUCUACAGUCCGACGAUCCAACACCAAAAAGAGAAAGUCUGGUUAAAACACCAUGAGUCAAAUGUCGGGCCAGCCAACAGUAACACUUGCCAAGAAGCAUGGCGUAGAAAUUUCUAUGUUCCGAAACAUGGAAUUCUCGGGUGCCAA | 0.324 |
| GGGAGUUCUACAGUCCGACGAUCAACUGGGUGUGCUUUAUAGCUCCAGCUUCCUGGGAGGAGCAGUGGAGCCAGCUCCCUCACCCCUUCUUGCCUUCCCUCUGCCUGGCCUGGAACUCGGGCUUCUGCCCAUUUGGAAUUCUCGGGUGCCAA | 0.659 |

Some of these lines once more (study 1):
| Oligonucleotide | log fluorescence [z-score] |
| --- | --- |
| CAGAAAATAGAAACTCGTGTTGTGCTA | 1.41 |
| GACGGACCGGACTATCGGGACGTGCTA | -0.513 |
| GACGGTTTCGGTTCGGGGACGTGCTAG | 13.3 |
| TCAAATTTCTTTCTAATACTGTGCTAG | 0.659 |
| GACGGTTTCGTGACTGGGGACGTGCTA | 2.48 |
| GACGATACCAGTATCGAGACGTGCTAG | 0.317 |
| AGAGCCTGGGGATGCAGAGAGTGCTAG | -1.14 |
| TAGAAACTCGTGTTTTTCTCCGTGCTA | 0.0839 |
